Published values from different studies.
Every numbered part comes from another study and shows a few of its results, in no order. Changes are numbered by the printed parent chain.

Sample 1 — method: RNA Bind-n-Seq; form: RNA; matrix: in vitro; concentration: not given; baseline: input RNA pool; direction: higher = stronger binding
Target: RING finger protein unkempt homolog, zinc fingers 1-6, GST-SBP tag (UNK, Homo sapiens, UniProt Q9C0B0, residues 30-357)
Notes: RNA with constant flanks, human-mouse chimeric sites, ends assumed
All sequences stand within: GGGAGUUCUACAGUCCGACGAUC … CAACAGAGGAUUGAGCAUCA
Residues (chain): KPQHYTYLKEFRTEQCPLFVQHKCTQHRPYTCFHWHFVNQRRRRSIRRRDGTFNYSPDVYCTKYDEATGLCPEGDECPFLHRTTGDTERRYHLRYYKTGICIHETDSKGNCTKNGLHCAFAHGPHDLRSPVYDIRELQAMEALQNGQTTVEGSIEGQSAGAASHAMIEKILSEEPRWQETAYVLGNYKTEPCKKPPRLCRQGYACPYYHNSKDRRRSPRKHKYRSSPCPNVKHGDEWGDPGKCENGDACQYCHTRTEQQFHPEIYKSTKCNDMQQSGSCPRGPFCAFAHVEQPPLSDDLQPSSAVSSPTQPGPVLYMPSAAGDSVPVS
| Sequence | bound/input enrichment |
| --- | --- |
| UCUGGUCACACUCGUGUGUAUGGUGUUUGCUUUGUGGACACUUCACUGGGCAAGUUUUUCAUAGGUCAGUUUUCGGAUGACCGCCACUGUUCCAGAUUUAGGACGCUAGUGGCUCACUAU | 0.283 ratio |
| CACACACUCUUCUGCGGGACCCUCAUCUUGCAGGCCCGAGCCUACGUGGGACCGCACGUCCUGGCAGUGGUGACCCGCACAGGGUUCUGCACAGCCAAAGGGGGCCUGGUGAGCUCCAUC | 0.0856 ratio |
| CUCAUGGCUGCAGAAACAGGAAGUGGAAAAACUGGUGCUUUUAGUAUUCCCGUUAUCCAGAUAGUGUAUGAAACUCUGAAAGACCAACAGGAAGGAAAAAAAGGAAAAACAACUAUUAAA | 0.85 ratio |
| UAUAAUAAUCAUGAAAUUCGUUCUGGAAAACAUAUUGGUGUCUGCAUCUCAGUUGCCAACAAUAGGCUUUUUGUGGGCUCGAUUCCUAAGAGUAAAACCAAGGAGCAGAUUCUUGAGGAA | 2.33 ratio |
| GGACAUCUGUCAAAUUGUUAUGUUCCUGUGAAACAAGUGAACACUCUGAUACACUUCAUUUAGUUGUACAUCUGUAUUUGUAUAAUAUGUAAAUAUGUUAAUCCAAGCAAUGUGUCACUU | 0.258 ratio |
| ACUCAGAGAUCCACCUCCCAAAGUGCUCUGGAGCUCUGUGUGGCCACCACACCUAACUUGAUGGAUAUAUAUUUUUUCUCUUUUAUGUCUUCCUGUUCGUCCAGGGAAGAAAGAUUUGUU | 1.28 ratio |
| UUCAAAGGCUGUGUUAUCUGUGUCAUUUCAUAAGUAACUCUGGGGGAGGGAAAUUCUGUUCUUUUGUUUAAUUUUCCCCCAAAUGAAGCCAAAGUGUUUUUUAAGGAACUGAGAAAAAAU | 0.169 ratio |

Sample 2 — method: RNA Bind-n-Seq; form: RNA; matrix: in vitro; concentration: 365 nM; baseline: no-protein control; direction: higher = stronger binding
Target: RNA binding protein fox-1 homolog 2, RRM domain, GST-SBP tag (RBFOX2, Homo sapiens, UniProt O43251-10, residues 100-194)
Notes: natural RNA segment, single round, ends assumed
All sequences stand within: GGGAGUUCUACAGUCCGACGAUC … UGGAAUUCUCGGGUGCCAA
Residues (chain): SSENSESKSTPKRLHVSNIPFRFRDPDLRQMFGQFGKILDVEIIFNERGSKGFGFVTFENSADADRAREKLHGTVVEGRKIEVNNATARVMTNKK
| Sequence | RBNS enrichment (R) |
| --- | --- |
| CCAGCUCCCUGCAGCCCCUCCCCCUACGUGCAACUGACACUCCUACCCAGUCAAAGCUCUGCCUUUCAGCCCACGUCAUACGUAGUGUCCAUCUUGUGAAGCCCUGUUGU | 0.941 |
| CCUUGGUUGUGAAAUGAUUUCAUUCCAGGGGAGGGGGCGGGGGAUCCCUUGGAGGCUCAGAGCAGCUGGCCCAAGCUGCAGCUCGUCUCCAGUGGAGGCUUGAAUGCCCU | 0.188 |
| ACACUUGGAUGCAGUGCGUCUGAAGUGCUAAUCAGUUGUAACAAUAGCACAAAUCGAACUUAGGAUUUGUUUCUUCUCUUCUGUGUUUCGAUUUUUGAUCAAUUCUUUAA | 0.29 |
| UAAGCCUGGCUGGUGGGCAUAGUUAUUCUCAGCAUUGUGGUGGCAAAUGACGUUGGUUCUAGAGACUUAGAGACUUGGGCAAUAGGAUUUAACACUGCUAGGUAGCUCAG | 2.26 |
| GCCUCCAGCUGCCCGUAACCACCGAUCUGGUCAAAAGCUGGAGGGGUCAGGGUGGAACAGGGACAGUUUGGUGGUUGCGGGGCCCUGACUCCCUGGGCUCCCCCCUGCCU | 0.82 |
| GUUUAUAUGAGUUUGUUUUGUUCUAAAAUACCCAAACAGUUCUGGUCAAGCGGGGCUAUGCCCGUCUGGCCCAAAACACAGUCCGUUAUUAACGAGAUGGCCCUGGCAGG | 0.228 |

Sample 3 — target: CCND3, cyclin fold, Cln2 fusion (human); method: yeast growth competition, sequencing; matrix: yeast; notes: weak parent motif; baseline: not given; direction: higher = stronger binding
Starting sequence: WEE1 docking peptide (human); HKTFRKLRLFDTP
| Change | normalised enrichment score |
| --- | --- |
| HKTFRKLLLFDTP [R8L] | 0.0923 |
| HKTFRKNRLFDTP [L7N] | 0.245 |
| HKTFRKLQLFDTP [R8Q] | 0.258 |
| HFTFRKLRLFDTP [K2F] | 0.00226 |

Further values, each from its own experiment
| Substance | target | assay | test system | setting | how to read | measurement | value |
| --- | --- | --- | --- | --- | --- | --- | --- |
| PhoQ, residues 284 288 289 292 302 303 QWQEDG | PhoP, residues 12 14 15 18 19 STHWV (Escherichia coli, UniProt P23836) | Sort-seq, refers to: YFP reporter | E. coli | PhoQ-PhoP variant library, together with: 10 µM Mg2+ | baseline: high Mg2+ state, higher = stronger signaling | fold induction | 16.2 |
